{"data": "Published values from different studies", "note": "Every numbered part comes from another study and shows a few of its results, in no order. “And” joins repeats or separate records; there may be more than shown.", "UniProt O00444, sequence (whole entry, looked up)": "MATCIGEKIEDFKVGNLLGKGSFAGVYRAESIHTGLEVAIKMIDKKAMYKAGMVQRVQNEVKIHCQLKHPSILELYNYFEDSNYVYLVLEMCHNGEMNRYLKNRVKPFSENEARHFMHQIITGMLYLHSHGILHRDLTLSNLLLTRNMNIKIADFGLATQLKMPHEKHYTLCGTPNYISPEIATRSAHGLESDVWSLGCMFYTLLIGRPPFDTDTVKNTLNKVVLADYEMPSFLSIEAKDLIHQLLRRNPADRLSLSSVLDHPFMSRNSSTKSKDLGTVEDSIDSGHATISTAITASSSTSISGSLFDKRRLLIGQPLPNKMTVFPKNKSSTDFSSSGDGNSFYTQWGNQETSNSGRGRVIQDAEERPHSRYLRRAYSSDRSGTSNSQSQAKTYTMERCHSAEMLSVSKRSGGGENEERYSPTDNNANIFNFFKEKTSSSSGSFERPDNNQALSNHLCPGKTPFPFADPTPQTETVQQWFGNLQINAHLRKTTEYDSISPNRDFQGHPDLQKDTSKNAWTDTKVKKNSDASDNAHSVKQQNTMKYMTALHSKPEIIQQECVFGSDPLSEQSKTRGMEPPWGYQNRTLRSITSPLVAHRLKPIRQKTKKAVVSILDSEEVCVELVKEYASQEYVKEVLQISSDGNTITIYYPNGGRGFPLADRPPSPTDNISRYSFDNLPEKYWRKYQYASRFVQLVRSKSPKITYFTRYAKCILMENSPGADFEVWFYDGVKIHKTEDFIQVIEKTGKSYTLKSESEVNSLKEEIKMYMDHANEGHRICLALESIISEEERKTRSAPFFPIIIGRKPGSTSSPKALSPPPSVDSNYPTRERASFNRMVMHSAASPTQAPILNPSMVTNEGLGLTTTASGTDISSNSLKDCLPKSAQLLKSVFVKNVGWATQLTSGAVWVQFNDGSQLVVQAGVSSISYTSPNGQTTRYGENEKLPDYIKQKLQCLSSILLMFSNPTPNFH", "UniProt Q8NE63, sequence (whole entry, looked up)": "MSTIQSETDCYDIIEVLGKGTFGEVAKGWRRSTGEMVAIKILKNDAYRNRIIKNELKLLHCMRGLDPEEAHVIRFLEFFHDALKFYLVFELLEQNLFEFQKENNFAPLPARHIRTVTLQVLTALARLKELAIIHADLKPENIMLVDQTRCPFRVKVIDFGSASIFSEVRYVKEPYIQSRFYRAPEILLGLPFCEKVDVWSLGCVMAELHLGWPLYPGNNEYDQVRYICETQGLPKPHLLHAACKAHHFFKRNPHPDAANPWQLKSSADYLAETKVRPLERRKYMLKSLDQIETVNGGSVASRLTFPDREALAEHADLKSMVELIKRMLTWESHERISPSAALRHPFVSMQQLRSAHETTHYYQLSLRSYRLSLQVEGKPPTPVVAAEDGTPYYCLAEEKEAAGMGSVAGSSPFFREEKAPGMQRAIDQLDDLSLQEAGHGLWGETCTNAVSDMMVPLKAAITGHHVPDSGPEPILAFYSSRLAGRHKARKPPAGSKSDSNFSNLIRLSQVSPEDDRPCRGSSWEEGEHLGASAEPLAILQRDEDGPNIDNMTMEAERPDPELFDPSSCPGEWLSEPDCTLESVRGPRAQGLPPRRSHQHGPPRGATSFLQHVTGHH", "UniProt Q9P2K8, sequence (whole entry, unmodified, looked up)": "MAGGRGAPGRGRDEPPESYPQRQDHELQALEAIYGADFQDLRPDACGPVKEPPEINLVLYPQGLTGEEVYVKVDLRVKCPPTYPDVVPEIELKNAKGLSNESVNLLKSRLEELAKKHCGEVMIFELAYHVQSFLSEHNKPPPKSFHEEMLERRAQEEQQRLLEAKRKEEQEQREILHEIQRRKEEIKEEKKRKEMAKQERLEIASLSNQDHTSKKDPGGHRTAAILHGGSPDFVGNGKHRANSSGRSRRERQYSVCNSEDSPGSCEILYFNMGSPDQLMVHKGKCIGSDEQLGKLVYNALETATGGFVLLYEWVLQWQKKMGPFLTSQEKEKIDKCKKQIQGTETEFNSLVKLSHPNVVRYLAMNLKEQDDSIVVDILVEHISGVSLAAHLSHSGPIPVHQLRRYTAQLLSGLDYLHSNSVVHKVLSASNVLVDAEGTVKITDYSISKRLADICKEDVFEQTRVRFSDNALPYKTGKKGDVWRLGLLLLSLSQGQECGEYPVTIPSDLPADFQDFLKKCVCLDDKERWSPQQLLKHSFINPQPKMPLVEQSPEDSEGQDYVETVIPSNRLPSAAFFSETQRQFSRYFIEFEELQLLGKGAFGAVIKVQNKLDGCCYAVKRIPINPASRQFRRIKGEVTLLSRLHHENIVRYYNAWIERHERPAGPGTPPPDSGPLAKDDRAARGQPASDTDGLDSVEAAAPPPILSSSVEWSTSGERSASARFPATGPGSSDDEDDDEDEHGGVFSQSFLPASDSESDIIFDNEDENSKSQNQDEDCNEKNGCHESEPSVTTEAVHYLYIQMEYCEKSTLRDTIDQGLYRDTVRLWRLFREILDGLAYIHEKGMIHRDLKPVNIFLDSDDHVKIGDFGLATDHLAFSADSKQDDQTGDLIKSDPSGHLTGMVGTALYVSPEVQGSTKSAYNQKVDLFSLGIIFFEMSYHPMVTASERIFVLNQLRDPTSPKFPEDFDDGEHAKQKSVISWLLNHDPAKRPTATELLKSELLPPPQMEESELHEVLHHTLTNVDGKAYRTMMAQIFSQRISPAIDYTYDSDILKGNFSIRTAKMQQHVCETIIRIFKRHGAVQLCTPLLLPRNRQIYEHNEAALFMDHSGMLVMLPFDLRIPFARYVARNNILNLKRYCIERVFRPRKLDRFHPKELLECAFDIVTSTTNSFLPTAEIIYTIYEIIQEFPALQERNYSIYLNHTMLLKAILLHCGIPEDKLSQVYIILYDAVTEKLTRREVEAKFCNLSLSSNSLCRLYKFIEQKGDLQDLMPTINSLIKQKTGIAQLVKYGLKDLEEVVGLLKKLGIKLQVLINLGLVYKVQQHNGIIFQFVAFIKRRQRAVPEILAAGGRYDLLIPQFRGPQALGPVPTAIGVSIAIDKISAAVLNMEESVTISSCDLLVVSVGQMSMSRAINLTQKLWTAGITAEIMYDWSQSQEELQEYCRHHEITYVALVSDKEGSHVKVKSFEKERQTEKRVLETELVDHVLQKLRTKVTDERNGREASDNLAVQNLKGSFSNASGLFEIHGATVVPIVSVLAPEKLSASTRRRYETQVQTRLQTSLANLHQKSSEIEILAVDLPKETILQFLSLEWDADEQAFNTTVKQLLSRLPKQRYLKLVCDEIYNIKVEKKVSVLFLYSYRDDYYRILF", "UniProt Q9Y6M4, sequence (whole entry, looked up)": "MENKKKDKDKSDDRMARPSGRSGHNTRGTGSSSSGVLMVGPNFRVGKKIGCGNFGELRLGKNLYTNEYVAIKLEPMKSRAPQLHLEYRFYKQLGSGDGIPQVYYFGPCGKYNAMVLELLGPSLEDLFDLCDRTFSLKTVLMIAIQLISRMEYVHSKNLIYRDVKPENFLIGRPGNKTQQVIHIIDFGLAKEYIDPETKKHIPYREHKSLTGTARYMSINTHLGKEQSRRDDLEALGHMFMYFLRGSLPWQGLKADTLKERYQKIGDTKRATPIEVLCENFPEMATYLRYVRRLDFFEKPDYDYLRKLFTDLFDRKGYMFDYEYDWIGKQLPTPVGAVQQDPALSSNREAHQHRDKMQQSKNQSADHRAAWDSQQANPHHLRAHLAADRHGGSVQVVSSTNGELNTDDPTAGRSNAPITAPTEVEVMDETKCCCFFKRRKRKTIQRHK"}
{"data": "Sample 1", "target": "Receptor tyrosine-protein kinase erbB-4 (ERBB4, Homo sapiens, UniProt Q15303)", "observed": "enzyme activity", "mode": "inhibitor", "concentration": "0.5 µM", "relative to": "control", "UniProt Q15303, sequence (whole entry, looked up)": "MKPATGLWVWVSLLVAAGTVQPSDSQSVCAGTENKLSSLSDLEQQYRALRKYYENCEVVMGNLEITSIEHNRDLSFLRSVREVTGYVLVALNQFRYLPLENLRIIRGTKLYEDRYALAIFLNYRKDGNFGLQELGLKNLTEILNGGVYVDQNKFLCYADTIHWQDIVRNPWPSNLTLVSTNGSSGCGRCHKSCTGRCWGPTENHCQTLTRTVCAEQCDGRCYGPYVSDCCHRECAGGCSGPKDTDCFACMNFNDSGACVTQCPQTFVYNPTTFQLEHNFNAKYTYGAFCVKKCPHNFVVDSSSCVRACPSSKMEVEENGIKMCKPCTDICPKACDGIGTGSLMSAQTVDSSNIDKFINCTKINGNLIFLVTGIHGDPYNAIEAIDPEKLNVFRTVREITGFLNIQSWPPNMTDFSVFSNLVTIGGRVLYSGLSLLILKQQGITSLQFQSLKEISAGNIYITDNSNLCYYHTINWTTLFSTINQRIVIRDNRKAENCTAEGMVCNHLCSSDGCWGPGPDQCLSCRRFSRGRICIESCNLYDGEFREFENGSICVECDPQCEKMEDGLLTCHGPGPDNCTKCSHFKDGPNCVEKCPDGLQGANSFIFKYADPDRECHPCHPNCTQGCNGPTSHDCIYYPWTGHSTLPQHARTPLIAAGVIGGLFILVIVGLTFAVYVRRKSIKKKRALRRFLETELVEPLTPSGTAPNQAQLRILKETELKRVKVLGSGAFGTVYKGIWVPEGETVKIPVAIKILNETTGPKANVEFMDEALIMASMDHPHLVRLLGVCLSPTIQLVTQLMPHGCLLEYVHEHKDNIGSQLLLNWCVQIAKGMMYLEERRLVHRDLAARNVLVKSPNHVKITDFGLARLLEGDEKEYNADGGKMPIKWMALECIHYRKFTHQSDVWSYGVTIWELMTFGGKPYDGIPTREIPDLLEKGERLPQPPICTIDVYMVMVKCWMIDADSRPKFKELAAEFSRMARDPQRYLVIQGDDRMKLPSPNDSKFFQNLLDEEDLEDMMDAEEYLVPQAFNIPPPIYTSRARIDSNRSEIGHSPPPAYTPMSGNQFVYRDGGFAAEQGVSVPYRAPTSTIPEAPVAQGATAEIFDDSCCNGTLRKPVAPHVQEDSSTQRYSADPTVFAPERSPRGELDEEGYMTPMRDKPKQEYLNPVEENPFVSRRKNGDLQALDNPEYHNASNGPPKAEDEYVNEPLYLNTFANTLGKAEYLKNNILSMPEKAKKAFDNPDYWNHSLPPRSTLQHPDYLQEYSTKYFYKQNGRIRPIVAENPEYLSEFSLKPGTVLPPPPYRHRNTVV"}
{"SMILES": "Clc1ccc(Nc2nnc(Cc3ccncc3)c3ccccc23)cc1", "remaining activity": "104%"}
{"SMILES": "NC(=O)c1cccc(-c2cc(Nc3ccc(OC(F)(F)F)cc3)ncn2)c1", "remaining activity": "85.3%"}
{"SMILES": "NC(=O)c1ccc(-c2nc(-c3ccc4c(c3)OCCO4)c(-c3ccccn3)[nH]2)cc1", "remaining activity": "104%"}
{"SMILES": "CNc1cc2c(Nc3cccc(Br)c3)ncnc2cn1", "remaining activity": "58.6%"}
{"SMILES": "CC(C)n1cnc2c(Nc3cccc(Cl)c3)nc(NCCO)nc21", "remaining activity": "101%"}
{"SMILES": "CC(C)(C)c1nc2c3cc[nH]c(=O)c3c3cc(F)ccc3c2[nH]1", "remaining activity": "99.9%"}
{"SMILES": "O=C(c1ccccc1)c1ccc(N2CCOCC2)cc1O", "remaining activity": "102%"}
{"SMILES": "FC(F)(F)c1ccc(/C=C/c2nc(COc3ccc(CCCCn4ccnn4)cc3)co2)cc1", "remaining activity": "99.6%"}
{"SMILES": "CCCCc1c(-c2ccc(O)cc2)[nH]c2nccnc12", "remaining activity": "102%"}
{"SMILES": "C[C@@H](N)[C@H]1CC[C@H](C(=O)Nc2ccncc2)CC1", "remaining activity": "93.5%"}
{"SMILES": "N#CC(c1ccnc(NCCc2cccnc2)n1)c1nc2ccccc2s1 (stereo not drawn)", "remaining activity": "83.1%"}
{"SMILES": "c1cc(-c2cnn3cc(-c4ccc(OCCN5CCCCC5)cc4)cnc23)ccn1", "remaining activity": "95.4%"}
{"SMILES": "O=C1c2ccccc2-c2nc3nnnn3nc21", "remaining activity": "50.2%"}
{"SMILES": "O=Nc1c(-c2c(O)[nH]c3ccccc23)[nH]c2ccccc12", "remaining activity": "102%"}
{"SMILES": "O=C1NC(=O)/C(=C/c2ccc3c(c2)OC(F)(F)O3)S1", "remaining activity": "99.5%"}
{"SMILES": "O=c1c(-c2ccc(F)cc2)c(-c2ccncc2)[nH]n1-c1ccc(Cl)cc1", "remaining activity": "73.2%"}
{"SMILES": "N#C/C(=C(/N)SC1C=CC=CC1)c1cccc(C(O)c2ccncc2)c1 (stereo not drawn)", "remaining activity": "98%"}
{"SMILES": "Nc1nc(Nc2ccc(S(N)(=O)=O)cc2)nn1C(=S)Nc1c(F)cccc1F", "remaining activity": "98%"}
{"SMILES": "COc1cc2c(Nc3ccc(Br)cc3F)ncnc2cc1OCC1CCN(C)CC1", "remaining activity": "45.6%"}
{"SMILES": "CC(C)N(CCC(=O)c1ccc2ccccc2c1)Cc1ccccc1", "remaining activity": "91.7%"}
{"SMILES": "CCN(CC)CCCCN1c2ccccc2Oc2ccc(Cl)cc21", "remaining activity": "102%"}
{"SMILES": "O=C(O)/C=C/c1cc(Br)c(Br)c(Br)c1Br", "remaining activity": "104%"}
{"data": "Sample 2", "SMILES": "CC(C)n1cnc(-c2ccc(F)cc2)c1-c1ncc(C(=O)Nc2ccc(N3CCN(C)CC3)cc2)[nH]1", "method": "phase 2a trial", "species": "idiopathic pulmonary fibrosis patients"}
{"dose": "dose not given", "setting": "adverse event grade 3, all dose arms pooled", "patients with diarrhoea [%]": 0}
{"dose": "60 mg once daily", "setting": "adverse event grade 4", "patients with diarrhoea [%]": 0}
{"dose": "30 mg once daily", "setting": "adverse event grade 5", "patients with diarrhoea [%]": 0}
{"dose": "60 mg once daily", "setting": "adverse event grade 3", "patients with diarrhoea [%]": 0}
{"dose": "dose not given", "setting": "adverse event grade 4, all dose arms pooled", "patients with diarrhoea [%]": 0}
{"dose": "dose not given", "setting": "adverse event grade 5, all dose arms pooled", "patients with diarrhoea [%]": 0}
{"data": "Sample 3", "SMILES": "COc1cccc(CNC(=O)c2nc3scc(COCc4ccc(C(=O)O)cc4)c3c(=O)[nH]2)c1", "method": "competition with immobilised ligand", "concentration": "1 µM"}
{"target": "MAK (Homo sapiens, UniProt P20794)", "observed": "cell-free assay", "remaining binding": "100%"}
{"target": "BRSK2 (Homo sapiens, UniProt Q8IWQ3)", "observed": "cell-free assay", "remaining binding": "77.3%"}
{"target": "PLK4 (Homo sapiens, UniProt O00444)", "observed": "cell-free assay", "remaining binding": "83%"}
{"target": "WNK1 (Homo sapiens, UniProt Q9H4A3)", "observed": "cell-free assay", "remaining binding": "76.7%"}
{"target": "KIT (Homo sapiens, UniProt P10721, V559D)", "observed": "cell-free assay", "remaining binding": "99.1%"}
{"target": "HIPK4 (Homo sapiens, UniProt Q8NE63)", "observed": "cell-free assay", "remaining binding": "94.3%"}
{"target": "SLK (Homo sapiens, UniProt Q9H2G2)", "observed": "cell-free assay", "remaining binding": "100%"}
{"target": "FGFR3 (Homo sapiens, UniProt P22607)", "observed": "cell-free assay", "remaining binding": "100%"}
{"target": "GRK1 (Homo sapiens, UniProt Q15835)", "observed": "cell-free assay", "remaining binding": "57.5%"}
{"target": "CAMK1D (Homo sapiens, UniProt Q8IU85)", "observed": "cell-free assay", "remaining binding": "100%"}
{"target": "MUSK (Homo sapiens, UniProt O15146)", "observed": "cell-free assay", "remaining binding": "100%"}
{"target": "CSNK1G3 (Homo sapiens, UniProt Q9Y6M4)", "observed": "cell-free assay", "remaining binding": "96.6%"}
{"target": "ALK (Homo sapiens, UniProt Q9UM73, L1196M)", "observed": "cell-free assay", "remaining binding": "94.8%"}
{"target": "Tyrosine-protein kinase ABL1, non-phosphorylated (ABL1, Homo sapiens, UniProt P00519, F317I)", "observed": "binding", "remaining binding": "96.4%"}
{"target": "DCLK1 (Homo sapiens, UniProt O15075)", "observed": "cell-free assay", "remaining binding": "60.4%"}
{"target": "eIF-2-alpha kinase GCN2, C-terminal kinase domain (EIF2AK4, Homo sapiens, UniProt Q9P2K8, S808G)", "observed": "cell-free assay", "remaining binding": "100%"}
{"data": "Sample 4", "cell line": "mouse MPNST tumor cells", "method": "high-content nuclear imaging", "refers to": "cell number", "concentration": "10 µM", "time": "12 h", "setting": "mean of 2 replicates", "relative to": "plate mean", "reading": "higher = more cells"}
{"Compound": "O=C(CNC(=O)c1ccc(-c2ccccc2)cc1)NC1CCCc2ccccc21 (stereo not drawn)", "nuclei count": "0.294 z-score"}
{"Compound": "CN(C)Cc1cccc(N=C(c2ccccc2)c2c(O)[nH]c3cc(C(=O)N(C)C)ccc23)c1", "nuclei count": "0.26 z-score"}
{"Compound": "CC(C)Nc1cc(-c2csc(N(C)C(=O)c3ccc(F)cc3)n2)ncn1", "nuclei count": "4.04 z-score"}
{"Compound": "CC(C)c1ccc2oc3nc(N)c(C(=O)O)cc3c(=O)c2c1", "nuclei count": "0.448 z-score and 0.818 z-score"}
{"Compound": "CCCn1c(=O)c(C)cn2nc(N)nc12", "nuclei count": "-0.602 z-score"}
{"Compound": "c1ccc([C@@H]2CCC[C@@H]2NC2=NCCCCCCCCCCC2)cc1", "nuclei count": "-6.23 z-score"}
{"Compound": "Cc1cccc(C)c1-n1c(=O)c2cnc(Nc3ccc(N4CCN(C)CC4)cc3)nc2n2c3ccccc3nc12", "nuclei count": "-4.7 z-score"}
{"Compound": "c1ccc(C(NCc2cccnc2)(c2ccccc2)c2ccccc2)cc1", "nuclei count": "-0.623 z-score"}
{"Compound": "CN(C)CCC=C1c2ccccc2CCc2ccccc21", "nuclei count": "-0.441 z-score"}
{"Compound": "N=C(N)NCCCC[C@@H]1NC(=O)CCSSC[C@@H](C(N)=O)NC(=O)[C@@H]2CCCN2C(=O)[C@H](Cc2c[nH]c3ccccc23)NC(=O)[C@H](CC(=O)O)NC(=O)CNC1=O", "nuclei count": "0.371 z-score"}
{"note": "A few entries again (sample 3):"}
{"target": "GRK1 (Homo sapiens, UniProt Q15835)", "observed": "cell-free assay", "remaining binding": "57.5%"}
{"target": "CAMK1D (Homo sapiens, UniProt Q8IU85)", "observed": "cell-free assay", "remaining binding": "100%"}
{"target": "MUSK (Homo sapiens, UniProt O15146)", "observed": "cell-free assay", "remaining binding": "100%"}
{"target": "CSNK1G3 (Homo sapiens, UniProt Q9Y6M4)", "observed": "cell-free assay", "remaining binding": "96.6%"}
{"target": "ALK (Homo sapiens, UniProt Q9UM73, L1196M)", "observed": "cell-free assay", "remaining binding": "94.8%"}
{"target": "Tyrosine-protein kinase ABL1, non-phosphorylated (ABL1, Homo sapiens, UniProt P00519, F317I)", "observed": "binding", "remaining binding": "96.4%"}
